Experimental data from different studies.
Every numbered part comes from another study and shows a few of its results, in no order. Positions count from the first letter of the parent shown.

Study 1
Target: CCNB2, cyclin fold, Cln2 fusion (human)
Technique: yeast growth competition, sequencing
Medium: yeast
Notes: strong parent motif
Baseline: not given
Direction: higher = stronger binding
Measurement: normalised enrichment score
Starting sequence: PKMYT1 docking peptide (human); SFEPRNLLSLFED; partner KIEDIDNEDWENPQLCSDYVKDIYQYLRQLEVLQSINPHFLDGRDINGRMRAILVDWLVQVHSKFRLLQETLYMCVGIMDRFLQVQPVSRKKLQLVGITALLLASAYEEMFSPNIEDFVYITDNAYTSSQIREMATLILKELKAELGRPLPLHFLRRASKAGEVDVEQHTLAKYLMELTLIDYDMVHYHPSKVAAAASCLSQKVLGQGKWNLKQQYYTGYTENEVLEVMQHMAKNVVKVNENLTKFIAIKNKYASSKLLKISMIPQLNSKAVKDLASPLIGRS
SLEPRNLLSLFED [F2L]: 2.38
SFEPENLLSLFED [R5E]: 0.0457
SFEPRNLLSLFDD [E12D]: 1.09
SFECRNLLSLFED [P4C]: 1.38
SFEPINLLSLFED [R5I]: 1.54
SFEPRCLLSLFED [N6C]: 0.795
SFEPRNLLSLFEH [D13H]: 0.224
SFEPRNLLSIFED [L10I]: 1.05
SFEPRNLLVLFED [S9V]: 1.07
SFEPRNLMSLFED [L8M]: 0.887
SFEPRNLLSFFED [L10F]: 0.63
SFEPRNLLSLFEL [D13L]: 0.875
WFEPRNLLSLFED [S1W]: 1.54
RFEPRNLLSLFED [S1R]: 1.12
SFEPRNLPSLFED [L8P]: -0.536
SHEPRNLLSLFED [F2H]: -0.198
SFEPRNLLQLFED [S9Q]: 1.06
SVEPRNLLSLFED [F2V]: 1.59
SFEPFNLLSLFED [R5F]: 0.248
SFEPRNLRSLFED [L8R]: -0.314
SFENRNLLSLFED [P4N]: -0.4
SFEPRNLLSLSED [F11S]: -0.245
SFEPRNMLSLFED [L7M]: -0.58
SFEPRNLLSLFEM [D13M]: 0.916
SFEPWNLLSLFED [R5W]: -0.186

Study 2
Target: Centromere-binding protein 1, full length, His-tagged (CBF1, Saccharomyces cerevisiae, UniProt P17106, residues 1-351)
Sequence of UniProt P17106 (whole entry, looked up): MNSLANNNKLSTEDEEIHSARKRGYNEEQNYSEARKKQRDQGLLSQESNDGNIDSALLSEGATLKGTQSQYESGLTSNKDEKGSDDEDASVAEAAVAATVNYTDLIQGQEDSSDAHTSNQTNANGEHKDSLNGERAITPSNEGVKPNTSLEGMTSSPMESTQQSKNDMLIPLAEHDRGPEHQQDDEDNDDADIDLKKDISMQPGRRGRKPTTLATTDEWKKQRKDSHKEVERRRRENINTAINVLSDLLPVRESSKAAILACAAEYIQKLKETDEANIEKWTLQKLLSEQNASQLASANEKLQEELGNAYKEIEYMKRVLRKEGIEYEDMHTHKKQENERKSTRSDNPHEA
Technique: competition protein-binding microarray
Form: double-stranded DNA, one strand shown
Medium: in vitro
Tested at: 2 µM
Notes: whole 60-bp probe, lowest competitor level
Added: Pho4 competitor, 0.05 µM
Direction: higher = stronger binding
Measurement: fluorescence intensity
GTGGCAGGAGGGTTTCTATTTAGTGTTCGGTAAAGGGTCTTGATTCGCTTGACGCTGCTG: 79.3 a.u.
AAGCGCAGGAGGAGCAGCGTGGCGCAACCTTAAGGCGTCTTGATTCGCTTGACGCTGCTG: 50.1 a.u.
CTAACGAAGGTTTGGCCGGTGGGTGACAAGCCAAGTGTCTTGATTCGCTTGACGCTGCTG: 71.4 a.u.
CGGGGTTAAGTTTCGCACGTGTTTTGCTTGCAGCAGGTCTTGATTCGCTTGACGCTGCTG: 846 a.u.
CGTCCTAGTGATTGTATCGTGGGTGCCATGAGGAAGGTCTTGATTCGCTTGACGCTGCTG: 76.2 a.u.
TGAAGTGCCTGGCATCAGGTGAAACGGACCCCAAAGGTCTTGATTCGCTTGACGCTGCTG: 68.7 a.u.
ACTGCCATGGGTTTTGGCGTGGGTATGTTCACCTCAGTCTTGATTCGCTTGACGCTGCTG: 61.8 a.u.
CTTCTGTAAATTTGGTTTGTGGGTGGACGCGCCCCGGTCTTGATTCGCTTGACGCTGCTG: 91.1 a.u.
CGCTACCAACTGCGCCATGTGCCCAGAATTTCTGTAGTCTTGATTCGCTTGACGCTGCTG: 183 a.u.
GTCTTGTCTCATTGTGGTGTGGGTGTCCCCACTTCAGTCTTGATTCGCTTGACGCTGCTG: 71.4 a.u.
TGCGCAACAACTTGTCACAAAACTTTATGTCTAGAAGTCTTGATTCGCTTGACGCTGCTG: 76.1 a.u.
GTCTTGTCTCATTGTCACAAAACTTTCCCCACTTCAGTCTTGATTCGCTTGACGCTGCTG: 92 a.u.
GCACTTTCAGGTACCAGCGTGCTAAAGCCATTTTCGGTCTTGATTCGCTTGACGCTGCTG: 74.7 a.u.
TAGTTTTTCGCAAGCCATGCGTGTACTTTCGTTTTTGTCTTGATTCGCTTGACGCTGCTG: 83.1 a.u.
CTAACGAAGGTTTGATAGGTGGGTGACAAGCCAAGTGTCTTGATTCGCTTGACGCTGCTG: 65.8 a.u.
CAAAGAAAATGCTCCCTCGTGGCCGTCCATCCAGGCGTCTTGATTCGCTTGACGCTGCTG: 72.9 a.u.
CGGTAAATGAATCAGCATGTGAATTTTTCTAGAAAAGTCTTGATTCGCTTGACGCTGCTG: 187 a.u.
ACCAATCACTTTTTCATTTTTTTTCAAAAGCTCATCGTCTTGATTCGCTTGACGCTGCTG: 87.4 a.u.
CGGGGTTAAGTTTGTCACGAAACTTGCTTGCAGCAGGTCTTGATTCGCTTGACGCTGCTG: 66.3 a.u.
GTCTTGTCTCATTGTAATGTGGGTGTCCCCACTTCAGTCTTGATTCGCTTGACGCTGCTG: 81.8 a.u.
TGCGCAACAACTTGACTAGTGGGTGTATGTCTAGAAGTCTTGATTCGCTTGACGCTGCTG: 66.2 a.u.
CTTCCCAGGCCCACCAACGTGCGATCCCCGCTATGTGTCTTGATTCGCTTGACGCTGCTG: 59.6 a.u.
TGTGCTTGATAGCTTACCGTGCAAAAAATAATGGGTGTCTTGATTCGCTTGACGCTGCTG: 100 a.u.
ACAGATAAAGTCTAGTACGTGTGGAGGTTAATGCGCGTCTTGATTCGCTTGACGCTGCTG: 67.5 a.u.
GCAAGATCTAACGGCCACGTATTCTGGGCTTGGAGAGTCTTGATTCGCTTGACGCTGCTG: 69.2 a.u.

Study 3
Target: ABI1, truncated, D143A, DHFR fusion (Arabidopsis thaliana)
Technique: DHFR PCA, deep sequencing
Medium: yeast
Notes: methotrexate growth selection, single substitutions
Added: (+)-ABA 0.39 µM
Baseline: wild-type fitted maximum
Direction: higher = stronger binding
Measurement: relative binding score
Starting sequence: PYL1, truncated, DHFR fusion (Arabidopsis thaliana); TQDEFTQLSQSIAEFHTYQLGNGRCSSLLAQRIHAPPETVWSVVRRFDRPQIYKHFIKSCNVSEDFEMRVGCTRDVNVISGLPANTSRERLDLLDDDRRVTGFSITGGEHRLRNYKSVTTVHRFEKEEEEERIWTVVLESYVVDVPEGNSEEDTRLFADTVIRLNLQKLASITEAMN
Y18Q: -9.11%
R113A: 19.2%
P50E: -10.4%
V78H: 46.6%
R45L: -6.53%
E64K: 57.1%
Q2V: 66.7%
V76D: -4.95%
L8M: 37.9%
E64N: 44.9%
R32I: 48.9%
I52D: 55.4%
L20M: 36.6%
S80Q: 2.79%
I52C: 21.2%
E151I: 36.6%
P37I: 9.2%
A175T: 35.2%
Q51V: -15.3%
R111K: 15.7%

Study 4
Target: ATF1, bZIP domain (human)
Technique: DHFR protein complementation
Medium: yeast
Notes: single substitutions, most at no-binding floor
Baseline: wild-type JUN-FOS pair
Direction: higher = stronger binding
Measurement: binding fitness
Starting sequence: JUN, bZIP domain (human); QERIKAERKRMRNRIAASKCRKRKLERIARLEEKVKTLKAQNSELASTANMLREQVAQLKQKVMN; partner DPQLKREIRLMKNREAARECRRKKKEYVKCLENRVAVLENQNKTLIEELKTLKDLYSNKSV
V35M: -1.55 natural log
K39Q: -1.4 natural log
V56G: -1.53 natural log
E32G: -1.49 natural log
K34E: -1.48 natural log
T37V: -1.41 natural log
E54I: -1.56 natural log
S43Y: -1.4 natural log
L59R: -1.53 natural log
E54V: -1.52 natural log
T48D: -1.41 natural log
E44H: -1.55 natural log
Q41N: -1.55 natural log
E44Q: -1.42 natural log
T48S: -1.53 natural log
A46P: -1.48 natural log
L45H: -1.49 natural log
K34M: -1.41 natural log

Study 5
Target: Histone acetyltransferase KAT6A, winged helix 1, GST fusion (KAT6A, Homo sapiens, UniProt Q92794, residues 1-85)
Technique: protein binding microarray
Form: double-stranded DNA, one strand shown
Medium: in vitro
Tested at: not given
Notes: 8-mer, flanks averaged, mean of 2 arrays, mostly near background
Baseline: not given
Direction: higher = stronger binding
Measurement: E-score
Construct (chain): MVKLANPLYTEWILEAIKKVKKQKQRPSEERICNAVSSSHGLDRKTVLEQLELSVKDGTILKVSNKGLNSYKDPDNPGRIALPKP
CAATGCGC: 0.381
TGGTATAA: -0.171
ATCGAGCA: -0.221
AATCTGGA: -0.0979
ACCTCTGA: -0.0994
ATTCCCTG: -0.22
CCCATGCG: 0.104
CAAATTAC: -0.0453
GCCGGACA: 0.304
CAAGCTAC: 0.0425
AAAGGGCG: 0.0576
CATTGACC: 0.0609
AATATCAG: -0.101
AATGACCT: -0.187
ACTCTGGA: -0.155
CTAGCTGC: 0.0842
CGGTCTCC: 0.158
AGGTGGAA: -0.179
CCGAGACA: -0.0273
ATTCAATG: -0.127
CTATAGAA: 0.0272

Study 6
Molecule: PhoQ, residues 284 288 289 292 302 303 TAVSDG
Technique: Sort-seq
Measured: YFP reporter
Medium: E. coli
Notes: PhoQ-PhoP variant library
Added: 10 µM Mg2+
Baseline: high Mg2+ state
Direction: higher = stronger signaling
Measurement: fold induction
PhoP, residues 12 14 15 18 19 TQAML (Escherichia coli, UniProt P23836): 16.1
PhoP, residues 12 14 15 18 19 NQCAL (Escherichia coli, UniProt P23836): 18
PhoP, residues 12 14 15 18 19 LHTVL (Escherichia coli, UniProt P23836): 1.1

Study 7
Target: Interferon regulatory factor 5, full length, phosphomimetic (IRF5, Homo sapiens, UniProt Q13568-2, residues 1-514, K96S/S451D/S453D/S456D/S462D)
Technique: protein-binding microarray
Form: double-stranded DNA, one strand shown
Medium: in vitro
Tested at: 250 nM
Notes: 60-bp whole probe
Added: salmon DNA 0.4 mg/ml
Baseline: random background probes
Direction: higher = stronger binding
Measurement: log fluorescence
Constant ends, left off below: GCCTAGCAC … GTCTTGATTCGCTTGACGCTGCTG
TCATGTTTTTCATTATTACTGTGCTAG: 1.86 z-score
TTAGGTCTCATACTGCTTTAGTGCTAG: 0.0124 z-score
TCATTTTACTTTCTATGACTGTGCTAG: 4.88 z-score
GACGGTTTCGGTCTCGGGCCGTGCTAG: 9.82 z-score
TCAACTCTGTCCCTCTGACTGTGCTAG: -0.223 z-score
TCATTTTCCATTTTGTGACTGTGCTAG: 1.44 z-score
GACGGTATCGACGCTGGGGACGTGCTA: 1.2 z-score
TTGGGTCTCGGTATCGGTTAGTGCTAG: 5.29 z-score
GTCCCTATCTCCTCACAGACCGTGCTA: 0.121 z-score
TCATACATGAGTTTAGAACTGTGCTAG: 0.204 z-score
TGAGGTTTTCTAATGTTTTTGTGCTAG: 0.66 z-score
TCAACTCTCTACATGTGACTGTGCTAG: 0.359 z-score
TCACATTCTGAATTCGAACTGTGCTAG: 0.619 z-score
GACGGACTGGCCTTTCGGGACGTGCTA: 0.617 z-score
GCCGGACTGGACTATCGGGACGTGCTA: 0.681 z-score
CCCTATTTAAGGCATCTGCAGGTGCTA: -0.236 z-score
GACGATTTCAGTCTCGAGTCGTGCTAG: 1.56 z-score
GACGATTTCAGTCTAGAGACGTGCTAG: 1.58 z-score
TTAGGTATCGTCTATCGGTTAGTGCTA: 5.14 z-score
GACGGTATCAGGTATCGGGACGTGCTA: 1.39 z-score

For quick reference, copied from above (study 7):
TCATGTTTTTCATTATTACTGTGCTAG: 1.86 z-score
TTAGGTCTCATACTGCTTTAGTGCTAG: 0.0124 z-score
TCATTTTACTTTCTATGACTGTGCTAG: 4.88 z-score
GACGGTTTCGGTCTCGGGCCGTGCTAG: 9.82 z-score
TCAACTCTGTCCCTCTGACTGTGCTAG: -0.223 z-score
TCATTTTCCATTTTGTGACTGTGCTAG: 1.44 z-score
GACGGTATCGACGCTGGGGACGTGCTA: 1.2 z-score
TTGGGTCTCGGTATCGGTTAGTGCTAG: 5.29 z-score
GTCCCTATCTCCTCACAGACCGTGCTA: 0.121 z-score
TCATACATGAGTTTAGAACTGTGCTAG: 0.204 z-score
TGAGGTTTTCTAATGTTTTTGTGCTAG: 0.66 z-score
TCAACTCTCTACATGTGACTGTGCTAG: 0.359 z-score
TCACATTCTGAATTCGAACTGTGCTAG: 0.619 z-score
GACGGACTGGCCTTTCGGGACGTGCTA: 0.617 z-score
GCCGGACTGGACTATCGGGACGTGCTA: 0.681 z-score
CCCTATTTAAGGCATCTGCAGGTGCTA: -0.236 z-score
GACGATTTCAGTCTCGAGTCGTGCTAG: 1.56 z-score
GACGATTTCAGTCTAGAGACGTGCTAG: 1.58 z-score
TTAGGTATCGTCTATCGGTTAGTGCTA: 5.14 z-score
GACGGTATCAGGTATCGGGACGTGCTA: 1.39 z-score
